# Measured values from different studies.
# Numbered parts are unrelated; each lists some results of a single study. Positions count from the first letter of the parent shown.

# Block 1 — technique: DHFR PCA, deep sequencing; sample: yeast; with: (+)-ABA 1.4 µM; relative to: wild-type fitted maximum; direction: higher = stronger binding
# Target: ABI1, truncated, D143A, DHFR fusion (Arabidopsis thaliana)
# Setting: methotrexate growth selection, single substitutions
# Starting sequence: PYL1, truncated, DHFR fusion (Arabidopsis thaliana); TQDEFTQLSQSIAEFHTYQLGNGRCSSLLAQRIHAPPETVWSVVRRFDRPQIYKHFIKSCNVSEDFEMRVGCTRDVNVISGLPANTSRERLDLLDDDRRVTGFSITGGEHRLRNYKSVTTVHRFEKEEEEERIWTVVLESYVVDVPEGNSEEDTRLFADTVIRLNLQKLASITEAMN
Substitution,relative binding score [%]
V40N,-47.5
R49Q,67.7
E38Y,-3.76
V78D,-8.1
R99E,10.1
D153Q,-1.72
T39N,13.2
H16K,-10.2
H122G,-3.99
L8R,-1.11
H110Y,10.9
V136H,-15.7
V137E,-9.89
R155L,20.2
A13V,32.4
A30H,54.1
S87W,10.6
Q7R,48.7
L82N,-1.92
T17C,6.83

# Block 2 — target: FOS, bZIP domain (human); technique: DHFR protein complementation; sample: yeast; relative to: wild-type JUN-FOS pair; direction: higher = stronger binding
# Setting: single substitutions, most at no-binding floor
# Starting sequence: JUN, bZIP domain (human); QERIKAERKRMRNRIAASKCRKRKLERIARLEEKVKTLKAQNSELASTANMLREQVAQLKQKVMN; partner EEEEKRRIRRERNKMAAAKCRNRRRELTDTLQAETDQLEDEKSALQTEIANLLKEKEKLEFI
Substitution,binding fitness [natural log]
E33G,-0.299
R30A,0.243
R30E,0.199
E44T,-0.224
L31Y,-0.35
A57I,-0.353
E44L,-0.163
A46K,0.0856
S47H,-0.0134
E32V,-0.0997
T48M,-0.0369
E33D,-0.114
A49L,-0.0851
T37G,-0.1
E32N,-0.297
V35G,-1.08
A46T,-0.0696
L52M,-0.815
Q41V,-0.13

# Block 3 — target: CCNB2, cyclin fold, Cln2 fusion (human); technique: yeast growth competition, sequencing; sample: yeast; setting: weak parent motif; relative to: not given; direction: higher = stronger binding
# Starting sequence: DTL docking peptide (human); PSSMRKICTYFHR
Substitution,normalised enrichment score
PSSMRKACTYFHR [I7A],-0.2
PSSMRKICTYFHA [R13A],0.65
PSSMRKICAYFHR [T9A],-0.0308
ASSMRKICTYFHR [P1A],0.341
PSSMRKICTYAHR [F11A],0.314
PSSARKICTYFHR [M4A],0.23
PASMRKICTYFHR [S2A],0.415

# Block 4 — technique: RNA Bind-n-Seq; form: RNA; sample: in vitro; concentration: 200 nM; setting: whole 134-nt RNA, ends assumed; with: 150 mM KCl; relative to: input library; direction: higher = stronger binding
# Target: Fragile X messenger ribonucleoprotein 1, C-terminal low-complexity region (Fmr1, Mus musculus, UniProt P35922)
# All sequences stand within: GGGAGUUCUACAGUCCGACGAUC … UGGAAUUCUCGGGUGUCAAGG
Sequence,log2 enrichment
UCCUGUGCUACACAUCGUAUGUACCGAAUCGGGAAAAAAGGAAAAAAGGGGAAAAAAGGAAAGUAUUAUGUUACGCCGUUCGGAUCUGCA,-0.497
CUGUGCUACACAUCGUAUGUACCGAAUCGGGGAAAAAGGGGUUUUUGGGGAAAAAAAGGGGAAAGUAUUAUGUUACGCCGUUCGGAUCUG,-0.134
UCAAGUCCUGUGCUACACAUCGUAUGUACCGAAUCGGGAAGGGAAGGGGAAGGGGAAAGUAUUAUGUUACGCCGUUCGGAUCUGCACUUC,0.656
CACAGACAACACGCACCCACACAGACACAGAGGGAAGGGGUUGGGAGGGGGACAGGGUGCACAGCAGGGCGGGGUAGGACCCCAGCCCCU,1.3
CAAGUCCUGUGCUACACAUCGUAUGUACCGAAUCGGGUUUUUGGGAAAGGGUGGGAAAGUAUUAUGUUACGCCGUUCGGAUCUGCACUUC,1.04
UCCUGUGCUACACAUCGUAUGUACCGAAUCGGGGUGGGGUUUUUGGGGUUUUUUUGGGGAAAGUAUUAUGUUACGCCGUUCGGAUCUGCA,0.951
CCUGUGCUACACAUCGUAUGUACCGAAUCGGGGAAAAAGGGGUUUUUGGGGUUUUUGGGGAAAGUAUUAUGUUACGCCGUUCGGAUCUGC,0.522
GUCCUGUGCUACACAUCGUAUGUACCGAAUCGGGUUUUUGGUUUUUGGGGUUUUUGGGGAAAGUAUUAUGUUACGCCGUUCGGAUCUGCA,-0.0269
AGUCCUGUGCUACACAUCGUAUGUACCGAAUCGGGUUUUUGGGUUUUUGGGUUUGGGAAAGUAUUAUGUUACGCCGUUCGGAUCUGCACU,0.484

# Block 5 — technique: EMSA with sequencing; form: double-stranded DNA, one strand shown; sample: in vitro; concentration: 10 and 20 nM; relative to: negative control set to 0; direction: higher = stronger binding
# Target: Hepatocyte nuclear factor 3-alpha (Foxa1, Mus musculus, UniProt P35582, residues 1-468, full length assumed)
# Setting: whole designed probe, mean of two concentrations, ends assumed
# All sequences stand within: GTGAGCGGTGCCCATTGATGGGGAAC … TTTCACTGGGATCGTGGGGAC
# Target sequence (chain): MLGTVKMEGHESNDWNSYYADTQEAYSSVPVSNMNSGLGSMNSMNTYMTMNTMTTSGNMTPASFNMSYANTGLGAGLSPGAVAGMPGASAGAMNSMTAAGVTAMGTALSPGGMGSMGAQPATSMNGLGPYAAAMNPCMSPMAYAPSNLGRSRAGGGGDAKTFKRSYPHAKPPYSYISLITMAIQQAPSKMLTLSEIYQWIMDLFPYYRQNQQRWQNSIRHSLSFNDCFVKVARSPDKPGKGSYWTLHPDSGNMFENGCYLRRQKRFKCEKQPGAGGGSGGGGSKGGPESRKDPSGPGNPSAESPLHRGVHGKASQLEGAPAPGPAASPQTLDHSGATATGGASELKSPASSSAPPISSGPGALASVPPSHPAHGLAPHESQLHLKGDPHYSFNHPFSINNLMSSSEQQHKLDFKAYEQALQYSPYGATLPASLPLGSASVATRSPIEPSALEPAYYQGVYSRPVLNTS
Sequence,normalised bound fraction [ratio]
TAAAAGCATCCTGTGAATCAAAAGAAGATGGCAGATTTTCTGAATACTACTAAGGACTTCATTTAGCATATGCACAATCCTATTAAAAGAAAAAGTAATCTAGTAAATAAGCAAAAATGTATTATCATCCTTCCTGTGTCAAGAGAGTACTCCATTTATACAGCCATAGAAAACTGCAATGAAGATAGGTAAT,0.00674
ATTTTGTTACTTAATAGTTCTACATGTGTATTAAATCAATATTTTAAAAATACCTATTTAATCCTTTAAGATAAGCATGCTTGTGCATTTTTTGTTTACTTTGAGGACTCCTGAGGCCTATGGCCTATTAAAGATTTCCGTCTTAATTATAGATTTATTCATTTCTTCTTATCTTTTCAGCAGTTTTACATTT,0.489
CAGAGGGGCTCTCAGTCCACTCTGCGGACTGCTGACTGAGACTTTGCAGACCTGCTCCCCTTCTCCCTGCTACCTGCCTGCCGGAAGAGTTGAGTCAACACAGCCCACCTCCTGCACCCAGAGCTGTGAGTCACAGTTGTTCAAACACGGAGGTGTGAATCACTCAACTTCTAGCCTTTGAGACATCTTGTGT,0.203
CTGTTGAGTGTATGTATACCCTTTCACACACATGTATAAACATATGTGGTGTGTTTGGAAAGATAAATACACTTAAATAGGTACCATCTGCATGTTTACATTACGTAGTATTAGATTGCATACTATATTTTGCTACTTGGCTTTTTAACATGTTGTGGATATCTTGTCAGTAGACTCAATGTATTTCTTTTTT,0.469
ATCTTCCCCCTCTTCCTTGCCCCACCAGCTCACCTTCCCGGGTTGTTTACTTTGAGGAAATTAATATAAGCCGGCATTCGTTAACCCTCTTCTGGCGCAAACTGCTGTTTACTTTGGATGAATCATGGTCCTTTGGCGACGCCAGGCTCCGGGAGAGCAAAGCACCGTGTCAGGGCCATGATCCGGGGTGGCC,0.429

# For quick reference, copied from above (block 1):
Substitution,relative binding score [%]
V40N,-47.5
H110Y,10.9
V78D,-8.1
V137E,-9.89
T39N,13.2
D153Q,-1.72
H16K,-10.2
S87W,10.6
E38Y,-3.76
L82N,-1.92
